Measured values from different studies.
A part holds a random share of what one study measured.
UniProt O75460, sequence (whole entry, looked up): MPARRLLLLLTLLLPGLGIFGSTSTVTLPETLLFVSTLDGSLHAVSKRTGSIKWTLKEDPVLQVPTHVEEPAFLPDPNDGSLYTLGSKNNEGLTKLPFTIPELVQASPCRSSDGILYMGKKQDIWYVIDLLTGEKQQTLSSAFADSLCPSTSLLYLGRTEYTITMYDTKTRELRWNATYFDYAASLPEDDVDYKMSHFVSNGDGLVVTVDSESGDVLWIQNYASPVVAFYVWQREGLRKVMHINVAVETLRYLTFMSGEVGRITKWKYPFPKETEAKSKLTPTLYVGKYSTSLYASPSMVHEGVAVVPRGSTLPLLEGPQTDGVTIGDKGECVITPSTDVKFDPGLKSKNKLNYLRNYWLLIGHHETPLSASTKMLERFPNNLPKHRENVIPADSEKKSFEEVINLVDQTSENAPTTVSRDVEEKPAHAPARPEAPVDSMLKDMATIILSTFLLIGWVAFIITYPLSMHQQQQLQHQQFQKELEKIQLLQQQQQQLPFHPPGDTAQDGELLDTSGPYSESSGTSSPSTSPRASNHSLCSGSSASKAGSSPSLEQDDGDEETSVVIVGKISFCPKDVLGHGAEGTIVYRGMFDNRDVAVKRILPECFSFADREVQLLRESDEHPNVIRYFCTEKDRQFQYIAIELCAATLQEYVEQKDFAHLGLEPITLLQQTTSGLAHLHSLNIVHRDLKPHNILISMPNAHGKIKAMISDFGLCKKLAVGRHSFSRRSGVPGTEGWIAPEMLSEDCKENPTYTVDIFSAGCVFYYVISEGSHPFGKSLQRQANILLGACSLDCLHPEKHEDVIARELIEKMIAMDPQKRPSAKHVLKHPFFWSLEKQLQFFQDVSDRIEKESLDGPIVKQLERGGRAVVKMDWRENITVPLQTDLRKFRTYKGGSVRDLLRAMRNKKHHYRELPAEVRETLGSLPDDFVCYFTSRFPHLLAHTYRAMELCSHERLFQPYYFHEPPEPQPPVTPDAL
UniProt P42684, sequence (whole entry, looked up): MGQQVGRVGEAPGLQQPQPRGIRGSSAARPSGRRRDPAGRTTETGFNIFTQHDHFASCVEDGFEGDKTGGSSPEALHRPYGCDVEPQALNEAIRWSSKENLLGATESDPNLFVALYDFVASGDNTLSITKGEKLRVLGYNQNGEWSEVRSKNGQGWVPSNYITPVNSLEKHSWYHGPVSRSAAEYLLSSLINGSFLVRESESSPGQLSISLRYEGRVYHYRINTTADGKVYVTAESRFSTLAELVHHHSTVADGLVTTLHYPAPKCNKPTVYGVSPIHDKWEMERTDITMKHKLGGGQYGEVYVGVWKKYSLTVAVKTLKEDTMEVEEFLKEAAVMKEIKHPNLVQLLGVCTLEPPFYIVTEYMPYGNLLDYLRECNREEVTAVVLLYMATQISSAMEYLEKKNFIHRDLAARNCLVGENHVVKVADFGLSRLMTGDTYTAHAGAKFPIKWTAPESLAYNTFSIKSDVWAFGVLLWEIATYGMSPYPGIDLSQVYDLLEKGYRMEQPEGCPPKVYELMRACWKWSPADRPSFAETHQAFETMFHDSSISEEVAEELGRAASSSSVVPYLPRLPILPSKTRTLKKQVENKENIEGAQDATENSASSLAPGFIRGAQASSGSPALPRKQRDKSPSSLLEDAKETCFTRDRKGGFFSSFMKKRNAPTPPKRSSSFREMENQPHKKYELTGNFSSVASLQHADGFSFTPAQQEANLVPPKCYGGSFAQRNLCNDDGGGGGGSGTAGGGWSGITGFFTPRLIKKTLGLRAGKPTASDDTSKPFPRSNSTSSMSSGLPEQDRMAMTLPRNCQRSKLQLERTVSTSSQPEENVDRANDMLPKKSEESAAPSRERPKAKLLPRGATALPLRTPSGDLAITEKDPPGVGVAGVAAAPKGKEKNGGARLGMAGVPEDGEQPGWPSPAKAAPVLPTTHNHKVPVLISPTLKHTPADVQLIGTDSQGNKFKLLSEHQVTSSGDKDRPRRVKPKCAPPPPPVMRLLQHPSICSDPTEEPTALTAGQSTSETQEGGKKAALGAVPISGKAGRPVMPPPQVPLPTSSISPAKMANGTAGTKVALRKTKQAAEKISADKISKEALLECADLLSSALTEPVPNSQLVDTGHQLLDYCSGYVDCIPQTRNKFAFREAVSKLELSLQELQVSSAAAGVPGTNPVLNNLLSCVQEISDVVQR
UniProt P07949, sequence (whole entry, unmodified, looked up): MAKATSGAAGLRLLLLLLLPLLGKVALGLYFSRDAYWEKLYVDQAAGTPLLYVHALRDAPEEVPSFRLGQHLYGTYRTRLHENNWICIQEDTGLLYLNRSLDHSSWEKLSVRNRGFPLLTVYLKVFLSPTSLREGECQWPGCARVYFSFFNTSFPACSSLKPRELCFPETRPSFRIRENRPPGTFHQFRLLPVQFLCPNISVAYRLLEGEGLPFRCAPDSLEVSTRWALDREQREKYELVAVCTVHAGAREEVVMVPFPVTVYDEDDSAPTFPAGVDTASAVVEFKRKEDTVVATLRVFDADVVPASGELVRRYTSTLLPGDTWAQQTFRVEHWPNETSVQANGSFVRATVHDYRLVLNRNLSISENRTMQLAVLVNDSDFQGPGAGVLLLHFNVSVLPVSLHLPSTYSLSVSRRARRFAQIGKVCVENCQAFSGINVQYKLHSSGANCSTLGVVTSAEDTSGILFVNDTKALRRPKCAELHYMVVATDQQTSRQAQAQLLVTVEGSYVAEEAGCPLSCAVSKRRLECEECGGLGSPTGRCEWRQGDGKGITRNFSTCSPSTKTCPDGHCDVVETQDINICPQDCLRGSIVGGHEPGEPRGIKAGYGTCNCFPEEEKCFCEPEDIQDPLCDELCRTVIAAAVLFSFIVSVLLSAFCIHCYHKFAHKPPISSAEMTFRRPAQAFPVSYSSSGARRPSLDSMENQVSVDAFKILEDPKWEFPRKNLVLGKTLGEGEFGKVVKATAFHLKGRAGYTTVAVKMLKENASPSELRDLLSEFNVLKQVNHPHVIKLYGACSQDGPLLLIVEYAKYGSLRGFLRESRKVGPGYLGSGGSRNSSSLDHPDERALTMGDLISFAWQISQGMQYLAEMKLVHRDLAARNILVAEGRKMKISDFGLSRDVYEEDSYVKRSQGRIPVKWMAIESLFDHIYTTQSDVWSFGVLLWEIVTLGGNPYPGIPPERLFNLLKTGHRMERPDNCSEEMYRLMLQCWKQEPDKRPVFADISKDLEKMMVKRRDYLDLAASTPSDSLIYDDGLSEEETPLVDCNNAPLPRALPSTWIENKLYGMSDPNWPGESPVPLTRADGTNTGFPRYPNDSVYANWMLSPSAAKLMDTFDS
UniProt P54756, sequence (whole entry, looked up): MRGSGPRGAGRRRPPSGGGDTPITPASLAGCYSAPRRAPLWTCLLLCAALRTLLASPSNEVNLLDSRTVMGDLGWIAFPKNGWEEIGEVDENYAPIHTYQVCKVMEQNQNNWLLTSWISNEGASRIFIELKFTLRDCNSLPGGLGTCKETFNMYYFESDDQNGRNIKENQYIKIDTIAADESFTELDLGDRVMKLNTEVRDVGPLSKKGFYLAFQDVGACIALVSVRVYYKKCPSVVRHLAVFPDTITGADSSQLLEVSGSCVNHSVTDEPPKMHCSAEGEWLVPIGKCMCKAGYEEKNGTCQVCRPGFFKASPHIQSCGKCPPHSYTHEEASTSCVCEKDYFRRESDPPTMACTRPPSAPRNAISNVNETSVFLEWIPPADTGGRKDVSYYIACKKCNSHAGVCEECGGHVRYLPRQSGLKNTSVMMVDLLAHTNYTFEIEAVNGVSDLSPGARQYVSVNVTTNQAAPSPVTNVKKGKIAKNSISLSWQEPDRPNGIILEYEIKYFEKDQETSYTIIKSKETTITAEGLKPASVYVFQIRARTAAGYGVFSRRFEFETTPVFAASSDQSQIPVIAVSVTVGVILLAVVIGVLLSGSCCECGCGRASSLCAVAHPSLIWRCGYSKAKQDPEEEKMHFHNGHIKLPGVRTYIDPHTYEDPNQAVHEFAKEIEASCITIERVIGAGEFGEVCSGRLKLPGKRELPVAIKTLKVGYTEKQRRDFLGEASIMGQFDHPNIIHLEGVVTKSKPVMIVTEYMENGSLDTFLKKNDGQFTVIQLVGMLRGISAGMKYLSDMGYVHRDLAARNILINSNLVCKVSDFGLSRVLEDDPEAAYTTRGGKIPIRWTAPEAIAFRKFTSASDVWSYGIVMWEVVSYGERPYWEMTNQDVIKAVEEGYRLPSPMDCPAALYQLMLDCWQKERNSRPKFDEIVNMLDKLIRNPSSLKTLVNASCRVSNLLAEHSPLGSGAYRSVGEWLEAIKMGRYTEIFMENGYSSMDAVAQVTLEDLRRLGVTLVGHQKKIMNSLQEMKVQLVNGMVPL
UniProt Q14012, sequence (whole entry, looked up): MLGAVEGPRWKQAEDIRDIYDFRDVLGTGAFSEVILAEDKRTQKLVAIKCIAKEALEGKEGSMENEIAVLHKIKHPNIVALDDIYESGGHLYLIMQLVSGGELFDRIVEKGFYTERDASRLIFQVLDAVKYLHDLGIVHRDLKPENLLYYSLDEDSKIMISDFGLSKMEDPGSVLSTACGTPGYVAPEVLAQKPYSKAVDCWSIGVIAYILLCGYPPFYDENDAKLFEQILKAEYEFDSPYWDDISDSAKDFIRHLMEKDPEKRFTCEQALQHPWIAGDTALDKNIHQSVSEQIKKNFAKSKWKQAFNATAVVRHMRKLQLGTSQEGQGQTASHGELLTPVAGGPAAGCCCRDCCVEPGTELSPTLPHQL
UniProt P50750, sequence (whole entry, looked up): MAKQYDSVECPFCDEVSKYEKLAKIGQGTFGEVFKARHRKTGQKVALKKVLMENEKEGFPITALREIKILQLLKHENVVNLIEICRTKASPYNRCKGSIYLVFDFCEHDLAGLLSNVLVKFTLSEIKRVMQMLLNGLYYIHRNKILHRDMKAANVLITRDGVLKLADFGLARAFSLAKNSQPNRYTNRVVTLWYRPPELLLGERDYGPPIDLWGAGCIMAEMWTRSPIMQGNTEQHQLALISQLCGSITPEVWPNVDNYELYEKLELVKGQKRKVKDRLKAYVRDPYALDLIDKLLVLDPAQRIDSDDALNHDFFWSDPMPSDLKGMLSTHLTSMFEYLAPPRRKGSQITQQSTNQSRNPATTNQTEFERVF

Series 1
Structure (SMILES): CC(C)CC(=O)N1CCc2nc(-c3ccc(Br)cc3)nc(N(C)Cc3ccccc3)c2C1
Observed: cell-free assay
Technique: competition with immobilised ligand
Tested at: 0.1 µM
target	remaining binding
RET (Homo sapiens, UniProt P07949, M918T)	100%
EGFR (Homo sapiens, UniProt P00533, L861Q)	100%
ABL2 (Homo sapiens, UniProt P42684)	100%
MAPK4 (Homo sapiens, UniProt P31152)	100%
MAPK3 (Homo sapiens, UniProt P27361)	88%
CAMK1 (Homo sapiens, UniProt Q14012)	100%
PLK4 (Homo sapiens, UniProt O00444)	70%
Tyrosine-protein kinase ABL1, non-phosphorylated (ABL1, Homo sapiens, UniProt P00519, Q252H)	53%
EGFR (Homo sapiens, UniProt P00533, T790M)	74%
RPS6KB1 (Homo sapiens, UniProt P23443)	100%
ULK3 (Homo sapiens, UniProt Q6PHR2)	89%
RIOK1 (Homo sapiens, UniProt Q9BRS2)	98%
MAP3K2 (Homo sapiens, UniProt Q9Y2U5)	100%
RIOK3 (Homo sapiens, UniProt O14730)	100%
PIK3CB (Homo sapiens, UniProt P42338)	100%
STK39 (Homo sapiens, UniProt Q9UEW8)	100%
ERN1 (Homo sapiens, UniProt O75460)	100%
NEK9 (Homo sapiens, UniProt Q8TD19)	100%

Series 2
Cell line: mouse MPNST tumor cells
Technique: high-content nuclear imaging
Measured: cell number
Tested at: 10 µM
Time: 12 h
Setting: mean of 2 replicates
Reference: plate mean
Reading: higher = more cells
Structure (SMILES)	nuclei count
CC(COc1ccccc1)N(CCCl)Cc1ccccc1 (stereo not shown)	1.96 z-score
CCOC(=O)c1csc(Nc2ccc(Cl)cc2)n1	1.19 z-score
O=C1NCCN1CCN1CCC(c2cn(-c3ccc(F)cc3)c3ccc(Cl)cc23)CC1	-5.21 z-score
Cc1ccc(N2CCN(CCC3NC(=O)c4ccccc43)CC2)cc1C (stereo not shown)	2.52 z-score

Series 3
SMILES: CC(C)n1cnc(-c2ccc(F)cc2)c1-c1ncc(C(=O)Nc2ccc(N3CCN(C)CC3)cc2)[nH]1
Technique: phase 2a trial
Species: idiopathic pulmonary fibrosis patients
test	conditions	adverse event incidence
measured: weight decreased	60 mg once daily, grade 1	0%
measured: weight decreased	30 mg once daily, grade 1	0%
measured: proteinuria	dose not given, grade 4, all arms pooled	0%
measured: hepatic enzyme abnormal	60 mg once daily, grade 5	0%
measured: ECG ST segment abnormal	60 mg once daily, grade 4	0%
measured: infection	30 mg once daily, grade 1	0%
measured: ECG ST segment abnormal	30 mg once daily, grade 2	0%
measured: infection	dose not given, grade 3, all arms pooled	0%
measured: chronic gastritis	dose not given, grade 2, all arms pooled	0%
measured: chronic gastritis	60 mg once daily, grade 3	0%
measured: infection	60 mg once daily, grade 4	0%

Series 4
Compound: Cc1ccc(NC(=O)c2ccc(CN3CCN(C)CC3)cc2)cc1Nc1nccc(-c2cccnc2)n1
Observed: enzyme activity
Mode: inhibitor
Tested at: 0.5 µM
Reference: control
target	remaining activity [%]
PRKG1 (Homo sapiens, UniProt Q13976)	86
EPHA5 (Homo sapiens, UniProt P54756)	104
MAP4K2 (Homo sapiens, UniProt Q12851)	107
NEK4 (Homo sapiens, UniProt P51957)	98.2
PRKCD (Homo sapiens, UniProt Q05655)	105
MAP3K10 (Homo sapiens, UniProt Q02779)	105
CHEK1 (Homo sapiens, UniProt O14757)	109
Cyclin-dependent kinase 9, with cyclin T1 (CDK9, Homo sapiens, UniProt P50750)	100
BTK (Homo sapiens, UniProt Q06187)	103
IRAK4 (Homo sapiens, UniProt Q9NWZ3)	101

Some of these lines once more (series 1):
target	remaining binding
RPS6KB1 (Homo sapiens, UniProt P23443)	100%
ERN1 (Homo sapiens, UniProt O75460)	100%
ULK3 (Homo sapiens, UniProt Q6PHR2)	89%
